{"data": "Measurements from different studies", "note": "Numbers after ± are the reported error.", "UniProt P05771, sequence (whole entry, looked up)": "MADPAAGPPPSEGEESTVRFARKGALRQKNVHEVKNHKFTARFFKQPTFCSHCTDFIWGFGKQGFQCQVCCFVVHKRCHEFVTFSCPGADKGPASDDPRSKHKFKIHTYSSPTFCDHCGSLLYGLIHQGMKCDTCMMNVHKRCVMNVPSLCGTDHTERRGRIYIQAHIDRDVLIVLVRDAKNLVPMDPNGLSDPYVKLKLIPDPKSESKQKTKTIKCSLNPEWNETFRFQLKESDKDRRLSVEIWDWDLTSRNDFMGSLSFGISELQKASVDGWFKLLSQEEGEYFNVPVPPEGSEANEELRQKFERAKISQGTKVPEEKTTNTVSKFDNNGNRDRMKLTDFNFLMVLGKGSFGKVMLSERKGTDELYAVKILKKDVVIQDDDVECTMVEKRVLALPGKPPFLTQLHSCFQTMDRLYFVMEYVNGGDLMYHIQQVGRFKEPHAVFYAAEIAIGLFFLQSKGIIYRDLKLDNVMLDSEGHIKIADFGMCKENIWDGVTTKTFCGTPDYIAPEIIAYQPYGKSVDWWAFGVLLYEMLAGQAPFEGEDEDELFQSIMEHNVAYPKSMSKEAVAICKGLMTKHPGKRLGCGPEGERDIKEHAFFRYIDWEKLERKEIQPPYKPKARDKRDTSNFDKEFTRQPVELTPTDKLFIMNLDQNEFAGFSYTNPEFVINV", "UniProt P10632, sequence (whole entry, looked up)": "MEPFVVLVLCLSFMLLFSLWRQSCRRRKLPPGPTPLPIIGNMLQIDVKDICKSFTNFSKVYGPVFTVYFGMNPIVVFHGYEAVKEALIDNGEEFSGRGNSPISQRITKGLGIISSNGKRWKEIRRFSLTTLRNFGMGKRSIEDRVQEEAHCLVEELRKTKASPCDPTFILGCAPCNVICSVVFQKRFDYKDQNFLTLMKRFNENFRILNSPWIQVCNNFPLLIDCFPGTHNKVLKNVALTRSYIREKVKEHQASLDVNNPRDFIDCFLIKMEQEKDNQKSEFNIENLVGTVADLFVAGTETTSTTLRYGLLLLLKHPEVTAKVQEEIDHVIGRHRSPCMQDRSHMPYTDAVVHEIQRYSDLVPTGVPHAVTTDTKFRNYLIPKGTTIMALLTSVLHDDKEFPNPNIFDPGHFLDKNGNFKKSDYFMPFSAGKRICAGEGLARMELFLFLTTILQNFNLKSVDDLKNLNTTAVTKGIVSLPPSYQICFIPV"}
{"SMILES": "O=C1NC2(CC2)COc2ncc(F)cc2[C@H]2COCCN2c2ccn3ncc1c3n2", "system": "Sprague-Dawley rat, female, uterus", "setting": "oral, 5 mg/kg/day, 4 weeks, end of treatment", "quantity": "organ-to-body weight ratio", "value": "0.134 ± 0.026%"}
{"SMILES": "CC[C@H](C)[C@H](NC(=O)[C@H](CCCNC(=N)N)NC(=O)[C@H](CCCCN)NC(=O)[C@H](Cc1ccc(O)cc1)NC(=O)[C@H](CC(=O)O)NC(=O)[C@H](C)NC(=O)CNC(=O)CCOCCOCCOCCNC(=O)CN1CCN(CC(=O)O)CCN(CC(=O)O)CCN(CC(=O)O)CC1)C(=O)N[C@H](C(=O)N[C@@H](CC(C)C)C(=O)N[C@@H](CCCCN)C(=O)N[C@H](C(=O)N[C@@H](CC(N)=O)C(N)=O)C(C)C)[C@@H](C)O [copper-64 labelled]", "assay": "ex vivo gamma counting", "system": "C57BL/6J male mice, B16-F10 tumour, brain", "setting": "intravenous, 1.85 MBq, 40 min", "quantity": "tissue uptake", "value": "0.126 ± 0.038 %ID/g"}
{"SMILES": "C[C@H](O)[C@@H](NC(=O)[C@H]1CCCN1C(=O)[C@@H](CCCCN)NC(=O)[C@@H](CO)NC(=O)[C@@H](Cc1ccc(O)cc1)NC(=O)[C@@H](CC(N)=O)NC(=O)CCOCCOCCOCCNC(=O)CN1CCN(CC(=O)O)CCN(CC(=O)O)CCN(CC(=O)O)CC1)C(=O)N[C@H](CC(=O)O)C(=O)N[C@H](CCCNC(=N)N)C(=O)N[C@H](CCC(N)=O)C(=O)N[C@H](Cc1ccc(O)cc1)C(=O)N[C@H](Cc1c[nH]cn1)C(=O)N[C@H](Cc1ccccc1)C(N)=O [copper-64 labelled]", "system": "C57BL/6J mouse, blood", "setting": "intravenous, 1.85 MBq, 0.3333 h", "quantity": "tissue uptake", "value": "2.34 ± 0.38 %ID/g"}
{"SMILES": "CC[C@H](C)[C@H](NC(=O)[C@@H](Cc1c[nH]c2ccccc12)NC(=O)[C@@H]1CCCN1C(=O)[C@H](CCCCN)NC(=O)[C@H](CCCCN)NC(=O)CCNC(=O)CCNC(=O)CN1CCN(CC(=O)O)CCN(CC(=O)O)CCN(CC(=O)O)CC1)C(=O)N[C@@H](C[Si](C)(C)C)C(=O)O [gallium-68 labelled]", "system": "nude mouse HT-29 xenograft, salivary glands", "setting": "90 min", "quantity": "tissue uptake", "value": "0.28 ± 0.17 %ID/g"}
{"SMILES": "CC[C@H](C)[C@H](NC(=O)[C@H](CCCNC(=N)N)NC(=O)[C@H](CCCCN)NC(=O)[C@H](Cc1ccc(O)cc1)NC(=O)[C@H](CC(=O)O)NC(=O)[C@H](C)NC(=O)CNC(=O)CCOCCOCCOCCNC(=O)CN1CCN(CC(=O)O)CCN(CC(=O)O)CCN(CC(=O)O)CC1)C(=O)N[C@H](C(=O)N[C@H](C(=O)N[C@@H](CCCCN)C(=O)N[C@H](C(=O)N[C@@H](CC(N)=O)C(N)=O)C(C)C)C(C)C)[C@@H](C)O [copper-64 labelled]", "assay": "ex vivo gamma counting", "system": "C57BL/6J male mice, B16-F10 tumour, heart", "setting": "intravenous, 1.85 MBq, 20 min", "quantity": "tissue uptake", "value": "1.16 ± 0.136 %ID/g"}
{"SMILES": "O=C1NC(=O)c2c1c1cc(F)c[n+]3c1c1c2c2cc(O)ccc2[n]1[Ru-4]312([N]=C=S)[S+]3CC[S+]1CC[S+]2CC3 (stereo not drawn)", "target or system": "Protein kinase C beta type, isoform beta-I (PRKCB, Homo sapiens, UniProt P05771)", "assay": "enzyme activity", "setting": "100 nM, human enzyme, together with: 10 µM ATP", "scale": "reference: untreated", "quantity": "remaining activity", "value": "56%"}
{"SMILES": "CCCC[C@H]1C(=O)N(C)[C@@H](CCCC)C(=O)N[C@@H](CCCNC(=O)CN2CCN(CC(=O)O)CCN(CC(=O)O)CCN(CC(=O)O)CC2)C(=O)N[C@H](C(=O)NCC(N)=O)CSCC(=O)N[C@@H](Cc2ccc(O)cc2)C(=O)N(C)[C@@H](C)C(=O)N[C@@H](CC(N)=O)C(=O)N2CCC[C@H]2C(=O)N[C@@H](Cc2c[nH]cn2)C(=O)N[C@@H](CC(C)C)C(=O)N(C)CC(=O)N[C@@H](Cc2c[nH]c3ccccc23)C(=O)N[C@@H](CO)C(=O)N[C@@H](Cc2c[nH]c3ccccc23)C(=O)N1C [gallium-68 labelled]", "system": "NOD/SCID mice with CHO-hPD-L1 xenograft, blood", "setting": "120 min post injection", "quantity": "tissue uptake", "value": "5.82 ± 2.51 %ID/g"}
{"SMILES": "CSCC[C@H](NC(=O)CNC(=O)[C@H](CCCCN)NC(=O)[C@H](CC(C)C)NC(=O)[C@@H]1CCCN1C(=O)[C@H](CO)NC(=O)[C@H](Cc1c[nH]cn1)NC(=O)[C@H](Cc1c[nH]c2ccccc12)NC(=O)[C@H](CCCNC(=N)N)NC(=O)[C@H](CC(C)C)NC(=O)[C@H](CCCNC(=N)N)NC(=O)[C@H](Cc1c[nH]c2ccccc12)NC(=O)[C@H](CS)NC(=O)CCCCCNC(=O)CN1CCN(CC(=O)O)CCN(CC(=O)O)CCN(CC(=O)O)CC1)C(=O)O [copper-64 labelled]", "assay": "PET imaging", "system": "BALB/c nude mice, tumor", "setting": "intravenous, dose not given, 18 h, Huh-7 tumour-bearing", "quantity": "tissue uptake", "value": "3.45 ± 0.41 %ID/g"}
{"SMILES": "CC[C@H](C)[C@H](NC(=O)[C@H](CCCCN)NC(=O)CNC(=O)[C@H](CC(C)C)NC(=O)[C@H](Cc1ccccc1)NC(=O)[C@H](CCCCN)NC(=O)[C@H](CO)NC(=O)[C@H](Cc1ccccc1)NC(=O)[C@H](Cc1c[nH]c2ccccc12)NC(=O)[C@H](CCC(N)=O)NC(=O)[C@@H](NC(=O)[C@H](Cc1ccccc1)NC(=O)CCCCCNC(=O)CN1CCN(CC(=O)O)CCN(CC(=O)O)CCN(CC(=O)O)CC1)C(C)C)C(=O)N[C@@H](CCC(=O)O)C(=O)N1CCC[C@H]1C(=O)N[C@@H](CC(=O)O)C(=O)N[C@H](C(=O)N[C@@H](CO)C(=O)N[C@@H](CCC(N)=O)C(=O)N[C@H](C(=O)N[C@@H](CCC(N)=O)C(=O)N[C@@H](CC(=O)O)C(=O)N1CCC[C@H]1C(=O)N[C@@H](CC(N)=O)C(=O)N[C@@H](CC(=O)O)C(=O)N[C@@H](CCC(N)=O)C(=O)N[C@@H](Cc1ccc(O)cc1)C(=O)N[C@@H](CCC(=O)O)C(=O)N1CCC[C@H]1C(=O)N[C@@H](Cc1ccccc1)C(=O)O)C(C)C)C(C)C [copper-64 labelled]", "system": "C57BL/6 male mouse, tumour-naive, lung", "setting": "2 h", "quantity": "tissue uptake", "value": "6.88 ± 0.2 %ID/g"}
{"SMILES": "CN1Cc2cc(Cl)ccc2-n2c(nnc2C2CCN(c3cccc([18F])n3)CC2)C1", "system": "C57BL/6 mouse male, thymus", "setting": "intravenous, 3.7 MBq, 15 min", "quantity": "tissue uptake", "value": "3.14 ± 0.28 %ID/g"}
{"SMILES": "CC(C)(C)C(=O)OCOP(=O)(OCOC(=O)C(C)(C)C)C1CCCN(O)C1=O (stereo not drawn)", "target or system": "KM12", "quantity": "GI50", "value": "443 nM"}
{"SMILES": "C[C@@H](c1ccc2nccn2c1)n1nnc2ncc(-c3cn[nH]c3)nc21", "target or system": "Cytochrome P450 2C8 (CYP2C8, Homo sapiens, UniProt P10632)", "assay": "enzyme activity, inhibitor", "system": "human, liver microsomes", "quantity": "IC50", "value": "6.4 µM"}
{"note": "Some of these lines once more:"}
{"SMILES": "CC[C@H](C)[C@H](NC(=O)[C@H](CCCCN)NC(=O)CNC(=O)[C@H](CC(C)C)NC(=O)[C@H](Cc1ccccc1)NC(=O)[C@H](CCCCN)NC(=O)[C@H](CO)NC(=O)[C@H](Cc1ccccc1)NC(=O)[C@H](Cc1c[nH]c2ccccc12)NC(=O)[C@H](CCC(N)=O)NC(=O)[C@@H](NC(=O)[C@H](Cc1ccccc1)NC(=O)CCCCCNC(=O)CN1CCN(CC(=O)O)CCN(CC(=O)O)CCN(CC(=O)O)CC1)C(C)C)C(=O)N[C@@H](CCC(=O)O)C(=O)N1CCC[C@H]1C(=O)N[C@@H](CC(=O)O)C(=O)N[C@H](C(=O)N[C@@H](CO)C(=O)N[C@@H](CCC(N)=O)C(=O)N[C@H](C(=O)N[C@@H](CCC(N)=O)C(=O)N[C@@H](CC(=O)O)C(=O)N1CCC[C@H]1C(=O)N[C@@H](CC(N)=O)C(=O)N[C@@H](CC(=O)O)C(=O)N[C@@H](CCC(N)=O)C(=O)N[C@@H](Cc1ccc(O)cc1)C(=O)N[C@@H](CCC(=O)O)C(=O)N1CCC[C@H]1C(=O)N[C@@H](Cc1ccccc1)C(=O)O)C(C)C)C(C)C [copper-64 labelled]", "system": "C57BL/6 male mouse, tumour-naive, lung", "setting": "2 h", "quantity": "tissue uptake", "value": "6.88 ± 0.2 %ID/g"}
{"SMILES": "C[C@H](O)[C@@H](NC(=O)[C@H]1CCCN1C(=O)[C@@H](CCCCN)NC(=O)[C@@H](CO)NC(=O)[C@@H](Cc1ccc(O)cc1)NC(=O)[C@@H](CC(N)=O)NC(=O)CCOCCOCCOCCNC(=O)CN1CCN(CC(=O)O)CCN(CC(=O)O)CCN(CC(=O)O)CC1)C(=O)N[C@H](CC(=O)O)C(=O)N[C@H](CCCNC(=N)N)C(=O)N[C@H](CCC(N)=O)C(=O)N[C@H](Cc1ccc(O)cc1)C(=O)N[C@H](Cc1c[nH]cn1)C(=O)N[C@H](Cc1ccccc1)C(N)=O [copper-64 labelled]", "system": "C57BL/6J mouse, blood", "setting": "intravenous, 1.85 MBq, 0.3333 h", "quantity": "tissue uptake", "value": "2.34 ± 0.38 %ID/g"}
